Results of several laboratories.
“And” joins repeats or separate records; there may be more than shown. Converted amounts (≈) assume the structure as drawn.

The EC50 of `Cc1cc(C)c(C#N)c(SC(C)C(=O)c2ccccc2)n1` (stereo not shown) is reported as over 64 µM (Trypanosoma brucei; parasite growth, resazurin).
`COc1cc([C@H]2OC[C@H]3[C@@H]2CO[C@@H]3c2cc(OC)c(O)c(OC)c2)cc(OC)c1O` gave an inhibition of 100% (Helicobacter pylori; microbial growth, broth dilution; 62.5 µg/mL).
For `Fc1ccc(Nc2c(-c3ccccn3)nc3sccn23)cc1`, the IC50 was 32.5 µM (Leishmania infantum; parasite growth; intracellular, amastigote).
`COc1cccc(-n2ncc3c(N/N=C/c4ccncc4)ncnc32)c1` gave an EC50 of 0.398 µM (Trypanosoma brucei; parasite growth).
For `C=C/C=C(\C)CC[C@@H]1C[C@@H](O)CC(=O)O1`, the MIC was 128 mg/L (≈ 609 µM) (Salmonella enterica; microbial growth, broth dilution; ATCC14028 TYPHIMURIUM).
With `Cc1cc(C)c(C#N)c(SCc2ccccc2)n1` the EC50 was 47 µM (Leishmania infantum; parasite growth; mouse Macrophage; intracellular, amastigote).
For `CN(Cc1ccc(C(C)(C)C)cc1)Cc1cccc2ccccc12`, the inhibition zone was 50 mm (Trichophyton mentagrophytes; microbial growth, disc diffusion; ATCC18748; 0.016 µg/mL, 72 h).
`CC(C)(C)[Si](C)(C)OCCN(c1ccc(F)cc1)c1c(-c2ccccn2)nc2ccccn12` has an IC50 of 2.07 µM (Leishmania infantum; parasite growth; intracellular, amastigote).
The MIC90 of `CC[C@H]1OC(=O)[C@H](C)[C@@H](O[C@H]2C[C@@](C)(OC)[C@@H](O)[C@H](C)O2)[C@H](C)[C@@H](O[C@@H]2O[C@H](C)C[C@H](N(C)C)[C@H]2O)[C@](C)(O)C[C@@H](C)/C(=N\OCOCCOC)[C@H](C)[C@@H](O)[C@]1(C)O` is reported as 2 mg/L (≈ 2.39 µM) (Streptococcus viridans; microbial growth; clinical isolate).
`COC(=O)c1ccc(O)cc1` gave an inhibition of 41.4% (Helicobacter pylori; microbial growth, broth dilution; 0.48 µg/mL).
For `COC(=O)[C@]12CCC(C)(C)C[C@H]1C1=CC[C@@H]3[C@@]4(C)CC[C@@H]5O[C@H](c6ccccc6C(=O)O)OC[C@@]5(C)[C@@H]4CC[C@@]3(C)[C@]1(C)CC2`, the inhibition was 100% (Leishmania mexicana; parasite growth, resazurin; 50 µM, amastigote).
The IC50 of `Fc1ccc(Nc2c(-c3ccccn3)nc3cnccn23)cc1` is reported as over 64 µM (Leishmania infantum; parasite growth; intracellular, amastigote).
With `CC(=O)Oc1ccccc1C(=O)CSc1nc(C)cc(C)c1C#N` the EC50 was 39.2 µM (Trypanosoma brucei; parasite growth, resazurin; RHODESIENSE).
For `Cc1ccc2nc(-c3ccccc3)c(CNc3cccc(C(F)(F)F)c3)n2c1`, the EC50 was 31.6 µM (Leishmania infantum; parasite growth; intracellular, amastigote).
`CC(C)[C@@H]1NC(=O)[C@@H](CCCNC(=N)N)NC(=O)[C@H](C)NC(=O)[C@@H](CCCN)NC(=O)[C@H](Cc2ccccc2)NC(=O)[C@@H](Cc2ccccc2)NC1=O` has an IC90 of 10.9 µM (Balamuthia mandrillaris; parasite growth, ATP luminescence).
The EC50 of `CCN(CC)Cc1ccc(Nc2nccc(-c3cnn4ncccc34)n2)cc1` is reported as 0.0316 µM (Trypanosoma brucei; parasite growth).
With `Cc1cc(C)c(C#N)c(SCC(=O)c2cccs2)n1` the EC50 was over 64 µM (Leishmania infantum; parasite growth; mouse Macrophage; intracellular, amastigote).
The inhibition of `CCCOC(=O)[C@]12CCC(C)(C)C[C@H]1C1=CC[C@@H]3[C@@]4(C)CC[C@H](O)[C@@](C)(CO)[C@@H]4CC[C@@]3(C)[C@]1(C)CC2` is reported as 100% (Leishmania mexicana; parasite growth, resazurin; 50 µM, amastigote).
With `O=c1cc(-c2ccc(O)cc2)oc2cc(O)cc(O)c12` the inhibition was 100% (Helicobacter pylori; microbial growth, broth dilution; 7.81 µg/mL).
`CC(C)[C@H](N)C(=O)N[C@H](Cc1ccccc1)C(=O)N[C@@H](Cc1ccccc1)C(=O)N[C@H](CCCN)C(=O)N[C@H](C(=O)N[C@H](CCCNC(=N)N)C(=O)O)[C@@H](C)O` gave an IC90 of over 20 µM (Balamuthia mandrillaris; parasite growth, ATP luminescence).
The MBC of `O=C(O[C@@H]1O[C@@H]2COC(=O)c3cc(O)c(O)c(O)c3-c3c(cc(O)c(O)c3O)C(=O)O[C@H]([C@H]1O)[C@@H]2O)c1cc(O)c(O)c(O)c1` is reported as 400 mg/L (≈ 630 µM) (Streptococcus mutans; microbial killing, broth dilution).
With `COC(=O)[C@]12CCC(C)(C)C[C@H]1C1=CC[C@@H]3[C@@]4(C)CC[C@@H]5O[C@H](CC6O[C@H]([C@H](C)O)[C@@H](O)[C@@H]6O)OC[C@@]5(C)[C@@H]4CC[C@@]3(C)[C@]1(C)CC2` (stereo partly shown) the inhibition was 98% (Leishmania mexicana; parasite growth, resazurin; 50 µM, amastigote).
`Cc1cc(C)c(C#N)c(SCC(=O)c2ccc(Cl)cc2Cl)n1` has an EC50 of 6.19 µM (Leishmania infantum; parasite growth; mouse Macrophage; intracellular, amastigote).
`Cc1[nH]c(C(=O)Nc2ccc(C(=O)NCc3n[nH]c(=O)o3)cc2N2CCN(C(=O)OC(C)(C)C)CC2)c(Cl)c1Cl` gave an MIC of over 32 mg/L (Klebsiella aerogenes; microbial growth, broth dilution; ATCC13408).
The inhibition zone of `CN(Cc1ccc(C2(C(F)(F)F)CC2)cc1)Cc1cccc2ccccc12` is reported as 39.2 mm (Trichophyton mentagrophytes; microbial growth, disc diffusion; ATCC18748; 0.032 µg/mL, 72 h).
With `Cc1cc(C)c(C#N)c(SCC(=O)Nc2ccccc2)n1` the EC50 was over 64 µM (Leishmania infantum; parasite growth; mouse Macrophage; intracellular, amastigote).
`COc1cc(OC)cc(-c2c(-c3ccccn3)nc3n2CCC3)c1` gave an IC50 of 0.67 µM and 1.64 µM (Leishmania infantum; parasite growth; intracellular, amastigote).
For `CC[C@H]1OC(=O)[C@H](C)[C@@H](O[C@H]2C[C@@](C)(OC)[C@@H](O)[C@H](C)O2)[C@H](C)[C@@H](O[C@@H]2O[C@H](C)C[C@H](N(C)C)[C@H]2O)[C@](C)(OC)C[C@@H](C)C(=O)[C@H](C)[C@@H](O)[C@]1(C)O`, the inhibition was 100% (Helicobacter pylori; microbial growth, broth dilution; 3.9 µg/mL).
`Cc1[nH]c(C(=O)Nc2ccc(C(=O)NCC(=O)O)cc2N2CC[C@@H](NC(=O)OC(C)(C)C)C2)c(Cl)c1Cl` gave an MIC of over 32 mg/L (Klebsiella aerogenes; microbial growth, broth dilution; ATCC13408).
`CC1(C)CC[C@]2(C(=O)OCCC3OCCCO3)CC[C@]3(C)C(=CC[C@@H]4[C@@]5(C)CC[C@H](O)[C@@](C)(CO)[C@@H]5CC[C@]43C)[C@@H]2C1` has an inhibition of 99.6% (Leishmania mexicana; parasite growth, resazurin; 50 µM, amastigote).
`COc1cc(-c2cc(=O)c3c(O)cc(O)cc3o2)ccc1O` has an inhibition of 100% (Helicobacter pylori; microbial growth, broth dilution; 31.25 µg/mL).
For `Cc1cc(C)c(C#N)c(NCC(=O)c2ccc(F)cc2)n1`, the EC50 was over 64 µM (Leishmania infantum; parasite growth; mouse Macrophage; intracellular, amastigote).
`C[S+]([O-])c1ccc(-c2c(-c3ccccn3)nc3n2CCC3)cc1` (stereo not shown) gave an IC50 of 33.2 µM and 12.7 µM (Leishmania infantum; parasite growth; intracellular, amastigote).
For `CC(C)[C@@H]1NC(=O)[C@@H](CO)NC(=O)[C@@H](CCCNC(=N)N)NC(=O)[C@H](Cc2ccccc2)NC1=O`, the IC90 was over 16 mg/L (Balamuthia mandrillaris; parasite growth, ATP luminescence).
`Cc1cc(C)c(C#N)c(NCC(O)c2ccc(F)cc2)n1` (stereo not shown) has an EC50 of 7.72 µM (Trypanosoma brucei; parasite growth, resazurin).
For `CC1(C)S[C@@H]2[C@H](NC(=O)[C@H](N)c3ccccc3)C(=O)N2[C@H]1C(=O)O`, the MIC90 was 2 mg/L (≈ 5.72 µM) (Streptococcus viridans; microbial growth; clinical isolate).
The inhibition of `CCOC(=O)[C@]12CCC(C)(C)C[C@H]1C1=CC[C@@H]3[C@@]4(C)CC[C@H](O)[C@@](C)(CO)[C@@H]4CC[C@@]3(C)[C@]1(C)CC2` is reported as 100% (Leishmania mexicana; parasite growth, resazurin; 50 µM, amastigote).
`COc1ccc(-c2cc(=O)c3c(O)cc(O[C@@H]4O[C@H](CO)[C@@H](O)[C@H](O)[C@H]4O)cc3o2)cc1O` has an inhibition of 49.3% (Helicobacter pylori; microbial growth, broth dilution; 0.24 µg/mL).
`COc1ccc2ncn(-c3cc(O[C@H](C)c4ccccc4C(F)(F)F)c(C(N)=O)s3)c2c1` gave an EC50 of 0.316 µM (Trypanosoma brucei; parasite growth).
For `O=C(O)CN1C(=O)/C(=C/c2ccc(-c3ccc(N(c4ccccc4)c4ccccc4)cc3)cc2)NC1=S`, the MBC was 125 mg/L (≈ 247 µM) (Streptococcus pyogenes; microbial killing, broth dilution; ATCC19615).
With `CC1(C)CC[C@]2(C(=O)O)CC[C@]3(C)C(=CC[C@@H]4[C@@]5(C)CC[C@@H]6O[C@H]([C@H](O)[C@@H](O)[C@@H](O)CO)OC[C@@]6(C)[C@@H]5CC[C@]43C)[C@@H]2C1` the inhibition was 100% (Leishmania mexicana; parasite growth, resazurin; 50 µM, amastigote).
With `O=c1cc(-c2ccc(O)c(O)c2)oc2cc(O)cc(O)c12` the inhibition was 58.1% (Helicobacter pylori; microbial growth, broth dilution; 0.48 µg/mL).
The inhibition of `C[C@H](O)[C@H](O)[C@@H](O)[C@@H](O)[C@@H]1OC[C@@]2(C)[C@@H]3CC[C@]4(C)[C@H](CC=C5[C@@H]6CC(C)(C)CC[C@]6(CO)CC[C@]54C)[C@@]3(C)CC[C@@H]2O1` is reported as 100% (Leishmania mexicana; parasite growth, resazurin; 50 µM, amastigote).
For `CCn1c(-c2nonc2N)nc2c(C#CC(C)(C)O)nc(OC[C@H](N)c3ccccc3)cc21`, the EC50 was 3.16 µM (Trypanosoma brucei; parasite growth).
With `CC(C)[C@@H]1NC(=O)[C@@H](CCCNC(=N)N)NC(=O)[C@H]([C@@H](C)O)NC(=O)[C@@H](CCCN)NC(=O)[C@H](C)NC(=O)[C@@H](Cc2ccccc2)NC1=O` the IC50 was over 20 µM (Balamuthia mandrillaris; parasite growth, ATP luminescence; 72 h).
For `CCS(=O)(=O)c1ccc(OC)c(Nc2nccc(N(C)c3ccc4c(C)n[nH]c4c3)n2)c1`, the EC50 was 3.16 µM (Trypanosoma brucei; parasite growth).
`CC1(C)CC[C@]2(C(=O)O)CC[C@]3(C)C(=CC[C@@H]4[C@@]5(C)CC[C@H](OC(=O)CCC(=O)O)[C@@](C)(COC(=O)CCC(=O)O)[C@@H]5CC[C@]43C)[C@@H]2C1` has an inhibition of 96.7% (Leishmania mexicana; parasite growth, resazurin; 50 µM, amastigote).
`CCCN1CCC(Oc2cc(Nc3nc(Nc4cccc(F)c4C(N)=O)c4cc[nH]c4n3)c(OC)cc2Cl)CC1` has an EC50 of 0.316 µM (Trypanosoma brucei; parasite growth).
`Cc1ccc2nc(-c3ccccc3)c(CNc3ccc(F)cc3)n2c1` has an EC50 of over 63.1 µM (Leishmania infantum; parasite growth; intracellular, amastigote).
